Literature values as cited in several papers.
Each line is one published result; not all experiments were run side by side. ± marks the error that the study gave. ≈ marks a conversion by molar mass, not a printed value.

CNC(C)C1CCC(N)C(OC2C(N)CC(N)C(OC3OCC(C)(O)C(NC)C3O)C2O)O1 (stereo not shown)  MIC (Pseudomonas aeruginosa; clinical isolate RKI-No_47/09): 8 µg/mL (≈ 16.8 µM)
Cc1c(C#N)cccc1[C@@H](C)Nc1nnc(C)c2cnc(N3CCOCC3)cc12  IC50 (OCI-AML-5; 3D cell viability; 7 d): 89.3 ± 0.07 nM
Cc1[nH]c(C)c(C(F)(F)F)c(=O)c1-c1ccc(Oc2ccc(OC(F)(F)F)cc2)cc1  IC50 (Plasmodium falciparum; whole cell extended time; 3D7; 72 h): 170 nM
O=C(Nc1nc2ccccc2[nH]1)c1ccccc1  response (SUMO/sentrin specific protease 8; 10 µM, PubChem AID 2540): 90%
COc1ccccc1Oc1cccc(CN2CCC(NC(=O)C3CC(=O)Nc4ccccc43)CC2)c1 (stereo not shown)  EC50 (human CCR8 K193A mutant (TM5); IP accumulation, agonist): 32 nM
C=CCCC(=O)O  EC10 (HDAC; enzyme activity, inhibitor; day 4, unbound medium concentration): 935000 nM
CC1(C)S[C@@H]2[C@H](NC(=O)[C@H](N)c3ccccc3)C(=O)N2[C@H]1C(=O)O  MIC (Klebsiella pneumoniae; clinical isolate RKI-No_229/15): > 16 µg/mL
COC(=O)C1=C(C)NC(C)=C(C(=O)OC)C1c1c(-c2cc(OC)c(OC)cc2[N+](=O)[O-])nc2sccn12  decrease in developed tension (guinea pig left atrium; 50 µM, paced at 1 Hz; baseline: control): 91 ± 1.4%
Cc1cnc(N2CC3(CCOCC3)C2)c(C(=O)Nc2ccc(C(=O)N3CCc4cc(C(=O)Nc5c(C)cccc5F)sc4-c4ccccc43)cc2)c1  IC50 (respiratory syncytial virus; cytopathic effect; B WST): 0.0195 µg/mL
COC(=O)C1=C(C)NC(C)=C(C(=O)OC)C1c1c(Cl)nc2sc(C)cn12  EC50 (negative inotropic effect; guinea pig, isolated left atrium): 56 nM
Cc1cc(NC2CCCC2)nc(Nc2ccccc2)n1  IC50 (Plasmodium falciparum; whole cell extended time; 3D7; 72 h): 990 nM
Oc1c2ccccc2c2c3c(cccc13)N=N2  inhibition (CSNK1G1; kinase activity, inhibitor; 0.5 µM): 14%
COC(=O)C1=C(C)NC(C)=C(C(=O)OC)C1c1c(-c2cccc(OC)c2)nc2sccn12  IC50 (calcium-induced contraction, relaxant; guinea pig ileum longitudinal muscle): 83 nM
O=C(Nc1ccc(OC2CCN(Cc3ccc(F)cc3)C2)c(Cl)c1)c1cccs1 (stereo not shown)  IC50 (Plasmodium falciparum; whole cell extended time; 3D7; 72 h): 130 nM
Nc1cc(C(F)(F)F)c(-c2nc(N3CCOCC3)nc(N3CCOCC3)n2)cn1  GI50 (MOLT-4): 393 nM
CCNS(=O)(=O)c1ccc(OC)cc1C1(O)CCN(Cc2cccc(Oc3ccccc3OC)c2)CC1  EC50 (human CCR8 G206W mutant (TM5); IP accumulation, agonist): 4.7 nM
COC(=O)C1=C(C)NC(C)=C(C(=O)OC)C1c1c(Cl)nc2sc(C)c(C)n12  decrease in contractile force (guinea pig left atrium; 5x1.000e-06 M): 73 ± 3.4%
CCN(c1cc(-c2ccc(CN3CCOCC3)cc2)cc(C(=O)NCc2c(C)cc(C)[nH]c2=O)c1C)C1CCOCC1  objective response rate (human patients, EZH2-mutated, relapsed or refractory follicular lymphoma; dose not given): 77%
COc1c(C)[nH]c(C)c(-c2ccc(Oc3cccc(C(F)(F)F)c3)cc2)c1=O  IC50 (Plasmodium falciparum; whole cell extended time; 3D7; 72 h): 310 nM
C[C@H]1COCCN1c1nc(-c2cnc(N)cc2C(F)F)nc(N2CCOCC2)n1  GI50 (LNCaP FGC cells; cell growth): 356 nM
Cc1[nH]c(C)c(-c2ccc(-c3ccc(OC(F)(F)F)cc3)cc2)c(=O)c1Br  IC50 (Plasmodium falciparum; whole cell extended time; 3D7; 72 h): 40 nM
COC(=O)C1=C(C)NC(C)=C(C(=O)OC)C1c1c(-c2ccc(OC)c(OC)c2)nc2sccn12  decrease in heart rate (guinea pig right atrium; 5x1.000e-05 M): 80 ± 1.9%
COc1ccc(C2CC(=O)C3=C(C2)NC(C)=C(C(=O)OC(C)C)C3c2cccc(O)c2)cc1OC (stereo not shown)  IC50 (Plasmodium falciparum; whole cell extended time; 3D7; 72 h): 780 nM
[N-]=[N+]=N[C@]1(CO)O[C@@H](n2ccc(N)nc2=O)[C@@H](F)[C@@H]1O  EC50 (HIV-1; viral replication; PBMC): 340 to 6900 nM
COC(=O)C1=C(C)NC(C)=C(C(=O)OC)C1c1c(-c2ccccc2OC(F)(F)F)nc2sccn12  IC50 (calcium-induced contraction, relaxant; guinea pig ileum longitudinal muscle): 1950 nM
COc1ccccc1Oc1cccc(CN2CCC(NC(=O)C(CCN3CCCC3)c3ccccc3)CC2)c1 (stereo not shown)  EC50 (human CCR8 S289A mutant (TM7); IP accumulation, agonist): 17 nM
Nc1cccc2c1C(=O)N(C1CCC(=O)NC1=O)C2=O (stereo not shown)  median duration of response (relapsed refractory multiple myeloma patients; dose not given): 8.3 months
CSc1ccc(C=CC(=O)NC(=O)c2ccccc2O)cc1  IC50 (Plasmodium falciparum; whole cell extended time; 3D7; 72 h): 290 nM
COc1ccccc1Oc1cccc(CN2CCC(O)(c3ccccc3C(=O)O)CC2)c1  EC50 (human CCR8 W251Q mutant (TM6); IP accumulation, agonist): 278 nM
Cc1[nH]c(C)c(-c2ccc(OCc3ccc(F)cc3)cc2)c(=O)c1Cl  IC50 (Plasmodium falciparum; whole cell extended time; 3D7; 72 h): 570 nM
COc1ccccc1Oc1cccc(CN2CCC3(CC2)C(=O)NCN3CCc2ccccc2)c1  EC50 (human CCR8 W194A mutant (TM5); IP accumulation, agonist): 7.6 nM

Repeated from above:
COc1ccccc1Oc1cccc(CN2CCC(NC(=O)C(CCN3CCCC3)c3ccccc3)CC2)c1 (stereo not shown)  EC50 (human CCR8 S289A mutant (TM7); IP accumulation, agonist): 17 nM
Nc1cccc2c1C(=O)N(C1CCC(=O)NC1=O)C2=O (stereo not shown)  median duration of response (relapsed refractory multiple myeloma patients; dose not given): 8.3 months
CSc1ccc(C=CC(=O)NC(=O)c2ccccc2O)cc1  IC50 (Plasmodium falciparum; whole cell extended time; 3D7; 72 h): 290 nM
COc1ccccc1Oc1cccc(CN2CCC(O)(c3ccccc3C(=O)O)CC2)c1  EC50 (human CCR8 W251Q mutant (TM6); IP accumulation, agonist): 278 nM
